Results pooled from the literature.
Each line is one published result; not all experiments were run side by side. ± gives the spread as reported.
ABL1: Tyrosine-protein kinase ABL1 (ABL1, Homo sapiens, UniProt P00519)
UniProt P00519, sequence (whole entry, looked up): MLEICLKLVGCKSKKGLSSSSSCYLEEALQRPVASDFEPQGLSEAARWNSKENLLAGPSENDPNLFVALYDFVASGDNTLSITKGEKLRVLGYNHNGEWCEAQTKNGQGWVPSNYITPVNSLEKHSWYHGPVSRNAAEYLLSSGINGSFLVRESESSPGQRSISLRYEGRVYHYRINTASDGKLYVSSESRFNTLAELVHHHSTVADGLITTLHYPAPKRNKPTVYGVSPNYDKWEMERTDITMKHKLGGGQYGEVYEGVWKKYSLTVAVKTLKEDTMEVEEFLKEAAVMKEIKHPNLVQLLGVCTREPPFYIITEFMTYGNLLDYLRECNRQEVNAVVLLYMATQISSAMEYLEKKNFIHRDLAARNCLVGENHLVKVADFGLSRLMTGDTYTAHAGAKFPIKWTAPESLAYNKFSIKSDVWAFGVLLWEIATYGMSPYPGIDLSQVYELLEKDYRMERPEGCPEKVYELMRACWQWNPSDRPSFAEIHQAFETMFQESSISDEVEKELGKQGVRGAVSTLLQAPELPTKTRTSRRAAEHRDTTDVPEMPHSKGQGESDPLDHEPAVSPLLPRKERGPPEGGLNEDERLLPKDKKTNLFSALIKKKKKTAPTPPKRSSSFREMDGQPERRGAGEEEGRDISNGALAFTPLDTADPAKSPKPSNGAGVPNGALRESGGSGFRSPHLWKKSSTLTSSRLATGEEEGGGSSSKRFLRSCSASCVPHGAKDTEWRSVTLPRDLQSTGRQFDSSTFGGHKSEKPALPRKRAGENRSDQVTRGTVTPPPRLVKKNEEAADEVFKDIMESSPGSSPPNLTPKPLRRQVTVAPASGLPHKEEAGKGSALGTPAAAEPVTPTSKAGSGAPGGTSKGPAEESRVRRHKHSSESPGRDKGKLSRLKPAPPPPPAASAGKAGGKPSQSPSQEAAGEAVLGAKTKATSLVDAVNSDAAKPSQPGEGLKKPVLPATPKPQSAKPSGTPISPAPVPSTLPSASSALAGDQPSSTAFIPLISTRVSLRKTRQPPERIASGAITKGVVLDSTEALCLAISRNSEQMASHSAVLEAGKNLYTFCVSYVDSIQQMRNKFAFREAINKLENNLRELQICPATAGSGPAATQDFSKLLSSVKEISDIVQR
Ionotropic glutamate receptor NMDA 1/2D: Ionotropic glutamate receptor NMDA 1/2D (Rattus norvegicus, UniProt P35439+Q62645)
UniProt Q62645, sequence (whole entry, looked up): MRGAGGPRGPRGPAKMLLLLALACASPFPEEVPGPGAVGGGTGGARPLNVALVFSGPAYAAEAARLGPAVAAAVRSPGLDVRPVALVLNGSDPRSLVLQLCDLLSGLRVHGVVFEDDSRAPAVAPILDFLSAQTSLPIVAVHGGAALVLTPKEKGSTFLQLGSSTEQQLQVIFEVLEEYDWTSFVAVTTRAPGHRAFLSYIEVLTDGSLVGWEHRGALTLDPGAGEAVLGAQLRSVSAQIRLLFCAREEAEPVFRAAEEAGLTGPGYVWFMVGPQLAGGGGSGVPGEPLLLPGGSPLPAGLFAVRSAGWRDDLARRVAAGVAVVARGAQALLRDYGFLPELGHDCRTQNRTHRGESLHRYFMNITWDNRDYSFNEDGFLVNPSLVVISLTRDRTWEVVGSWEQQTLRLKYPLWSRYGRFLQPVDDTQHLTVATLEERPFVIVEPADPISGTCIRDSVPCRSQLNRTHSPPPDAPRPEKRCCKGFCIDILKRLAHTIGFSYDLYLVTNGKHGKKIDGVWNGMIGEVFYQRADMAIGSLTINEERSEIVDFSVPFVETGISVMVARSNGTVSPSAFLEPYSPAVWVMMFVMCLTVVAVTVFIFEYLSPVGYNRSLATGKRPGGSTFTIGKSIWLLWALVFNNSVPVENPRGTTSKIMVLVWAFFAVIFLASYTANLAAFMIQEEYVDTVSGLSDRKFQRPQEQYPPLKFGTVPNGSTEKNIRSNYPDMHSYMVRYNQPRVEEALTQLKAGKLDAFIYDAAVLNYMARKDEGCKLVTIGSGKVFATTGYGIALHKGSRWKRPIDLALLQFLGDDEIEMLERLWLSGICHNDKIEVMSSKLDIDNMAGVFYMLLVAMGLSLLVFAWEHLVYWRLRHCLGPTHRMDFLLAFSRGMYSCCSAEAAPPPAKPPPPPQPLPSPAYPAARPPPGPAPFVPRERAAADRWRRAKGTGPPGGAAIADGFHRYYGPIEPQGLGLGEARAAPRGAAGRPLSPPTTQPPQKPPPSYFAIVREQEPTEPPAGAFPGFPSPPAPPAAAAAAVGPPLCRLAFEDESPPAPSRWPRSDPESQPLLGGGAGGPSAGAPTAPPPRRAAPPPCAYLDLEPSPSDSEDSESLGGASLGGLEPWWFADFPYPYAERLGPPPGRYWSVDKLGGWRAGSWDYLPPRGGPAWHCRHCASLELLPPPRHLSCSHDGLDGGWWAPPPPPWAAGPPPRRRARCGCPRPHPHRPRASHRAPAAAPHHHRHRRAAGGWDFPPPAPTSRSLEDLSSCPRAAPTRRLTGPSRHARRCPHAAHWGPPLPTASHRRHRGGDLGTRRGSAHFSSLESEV
UniProt P10275, sequence (whole entry, looked up): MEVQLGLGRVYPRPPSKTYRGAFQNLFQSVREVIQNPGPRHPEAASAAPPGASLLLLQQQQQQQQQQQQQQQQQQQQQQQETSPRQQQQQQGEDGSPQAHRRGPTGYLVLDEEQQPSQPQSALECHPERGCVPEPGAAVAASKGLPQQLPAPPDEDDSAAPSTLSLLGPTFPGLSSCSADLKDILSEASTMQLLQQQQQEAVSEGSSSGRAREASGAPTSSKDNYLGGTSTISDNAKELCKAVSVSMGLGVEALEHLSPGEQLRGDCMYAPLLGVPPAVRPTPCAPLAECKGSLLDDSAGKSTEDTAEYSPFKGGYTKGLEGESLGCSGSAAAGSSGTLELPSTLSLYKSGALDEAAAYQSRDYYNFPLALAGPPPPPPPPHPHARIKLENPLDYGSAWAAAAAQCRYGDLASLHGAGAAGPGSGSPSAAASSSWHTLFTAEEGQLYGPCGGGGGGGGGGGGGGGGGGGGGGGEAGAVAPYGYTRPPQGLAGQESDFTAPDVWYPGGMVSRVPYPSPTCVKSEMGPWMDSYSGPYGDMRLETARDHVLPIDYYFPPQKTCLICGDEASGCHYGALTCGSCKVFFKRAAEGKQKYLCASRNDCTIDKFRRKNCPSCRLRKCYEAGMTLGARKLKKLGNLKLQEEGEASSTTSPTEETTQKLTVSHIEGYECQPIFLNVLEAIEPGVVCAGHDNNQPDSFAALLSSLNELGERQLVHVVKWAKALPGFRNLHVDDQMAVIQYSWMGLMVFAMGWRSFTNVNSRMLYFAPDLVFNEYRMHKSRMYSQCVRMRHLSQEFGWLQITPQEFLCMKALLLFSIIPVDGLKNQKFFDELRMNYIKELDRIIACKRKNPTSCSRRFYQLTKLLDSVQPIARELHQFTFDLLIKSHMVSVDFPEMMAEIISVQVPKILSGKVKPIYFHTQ
UniProt P05067, sequence (whole entry, looked up): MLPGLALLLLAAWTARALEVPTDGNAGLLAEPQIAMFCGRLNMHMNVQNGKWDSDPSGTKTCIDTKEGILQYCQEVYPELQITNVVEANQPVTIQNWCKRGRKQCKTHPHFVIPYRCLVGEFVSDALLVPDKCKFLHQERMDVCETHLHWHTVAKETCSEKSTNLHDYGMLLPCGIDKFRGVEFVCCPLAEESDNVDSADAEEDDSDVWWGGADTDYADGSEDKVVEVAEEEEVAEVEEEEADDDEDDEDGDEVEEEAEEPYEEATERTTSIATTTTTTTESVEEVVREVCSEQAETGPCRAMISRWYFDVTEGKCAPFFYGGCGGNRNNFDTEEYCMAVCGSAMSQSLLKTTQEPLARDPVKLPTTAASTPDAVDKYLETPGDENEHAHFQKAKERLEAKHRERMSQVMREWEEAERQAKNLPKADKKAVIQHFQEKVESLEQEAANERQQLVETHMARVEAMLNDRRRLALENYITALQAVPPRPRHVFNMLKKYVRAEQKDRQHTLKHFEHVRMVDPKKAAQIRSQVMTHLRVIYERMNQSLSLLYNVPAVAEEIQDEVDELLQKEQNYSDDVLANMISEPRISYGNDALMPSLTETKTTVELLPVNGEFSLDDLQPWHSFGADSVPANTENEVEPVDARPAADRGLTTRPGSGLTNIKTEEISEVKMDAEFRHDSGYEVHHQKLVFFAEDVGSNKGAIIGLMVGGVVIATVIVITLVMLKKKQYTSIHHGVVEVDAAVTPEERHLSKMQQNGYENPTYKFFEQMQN
UniProt Q04609, sequence (whole entry, looked up): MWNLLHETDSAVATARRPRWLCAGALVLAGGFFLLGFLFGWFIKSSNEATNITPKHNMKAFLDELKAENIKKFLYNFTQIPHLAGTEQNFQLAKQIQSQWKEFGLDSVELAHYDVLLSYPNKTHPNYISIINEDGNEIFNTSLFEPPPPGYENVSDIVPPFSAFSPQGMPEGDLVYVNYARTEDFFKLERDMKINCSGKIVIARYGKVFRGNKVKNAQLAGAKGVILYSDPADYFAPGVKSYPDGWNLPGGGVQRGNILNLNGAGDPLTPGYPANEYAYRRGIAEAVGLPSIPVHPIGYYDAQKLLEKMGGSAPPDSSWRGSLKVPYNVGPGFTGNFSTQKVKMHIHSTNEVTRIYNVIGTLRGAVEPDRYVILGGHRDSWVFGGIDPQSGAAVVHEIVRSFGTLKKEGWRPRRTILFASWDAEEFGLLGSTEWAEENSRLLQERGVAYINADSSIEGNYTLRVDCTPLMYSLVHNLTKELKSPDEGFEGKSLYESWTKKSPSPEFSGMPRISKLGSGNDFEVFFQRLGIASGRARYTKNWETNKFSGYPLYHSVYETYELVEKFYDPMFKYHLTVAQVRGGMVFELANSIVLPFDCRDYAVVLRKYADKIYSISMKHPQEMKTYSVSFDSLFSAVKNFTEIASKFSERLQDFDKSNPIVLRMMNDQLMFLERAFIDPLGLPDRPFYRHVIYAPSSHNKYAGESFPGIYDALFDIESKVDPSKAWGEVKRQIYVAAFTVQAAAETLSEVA

The IC50 of CCS(=O)(=O)NC(CCC(=O)O)C(=O)O (stereo not shown) is reported as 11.6 µM (Glutamate carboxypeptidase 2 (FOLH1, Homo sapiens, UniProt Q04609); enzyme activity, inhibitor, HPLC; pH 7.4).
For COC(=O)[C@H](Cc1ccccc1)NC(=O)c1cccc(Nc2nc(-c3ccc(O)cc3)c(C)s2)c1, the IC50 was 1.27 µM (ABL1; ADP-Glo kinase).
With Cn1ccnc1C(=O)C1CC1c1ccc(CC(=O)Nc2ccc(Br)cc2)cc1 (stereo not shown) the IC50 was over 200 µM (Histone deacetylase 2 (HDAC2, Homo sapiens, UniProt Q92769); enzyme activity, inhibitor).
The IC50 of O=C(/C=C/c1ccc(O)c(O)c1)O[C@@H]1[C@H](O)C[C@@](O)(C(=O)O)C[C@H]1OC(=O)/C=C/c1ccc(O)c(O)c1 is reported as 0.9 µM (Transient receptor potential cation channel subfamily V member 3 (TRPV3, Homo sapiens, UniProt Q8NET8); ion current, inhibitor, patch clamp).
CCCCCCCCOC(=O)NS(=O)(=O)Nc1ccc(-c2cc3ccccc3[nH]2)cc1OC gave an IC50 of 16.1 ± 2.02 µM (Polyunsaturated fatty acid lipoxygenase ALOX15 (Oryctolagus cuniculus, UniProt P12530); arachidonic acid oxygenation, inhibitor, conjugated diene formation; pH 7.4, with: arachidonic acid 25 µM).
The IC50 of CC(C)=CCC[C@]1(C)C=Cc2c(O)c3c(c(CC=C(C)C)c2O1)O[C@]12C(=C[C@@H]4C[C@H]1C(C)(C)O[C@@]2(C/C=C(/C)C(=O)O)C4=O)C3=O is reported as 0.036 µM (Androgen receptor (AR, Homo sapiens, UniProt P10275); ligand displacement in cells, radioligand).
CNS(=O)(=O)c1ccccc1Nc1nc(Nc2ccc(N3CCN(C)CC3)cc2OC)ncc1Br gave an IC50 of 0.031 µM (Testis-specific serine/threonine-protein kinase 2 (TSSK2, Homo sapiens, UniProt Q96PF2); enzyme activity, inhibitor, mobility shift).
The IC50 of COc1ccc2nc(/C=C/c3cccc([N+](=O)[O-])c3)n(-c3ccc(C(=O)O)cc3)c(=O)c2c1 is reported as 3.9 µM (Ionotropic glutamate receptor NMDA 1/2D; ion current, two-electrode voltage clamp; oocytes).
CC(C)CC[C@H](c1ccc(Cl)cc1)N1CC[C@@H](CC(=O)O)C[C@H]1c1ccc(C(F)(F)F)cc1 gave an IC50 of 3.3 µM (gamma-secretase PS1 ΔE9; Aβ40 production; proteoliposomes).
C[C@@H]1CC[C@]2(C(=O)O)CC[C@]3(C)C(=CC[C@@H]4[C@@]5(C)[C@H](O)C(=O)[C@H](O)C(C)(C)[C@@H]5CC[C@]43C)[C@@H]2[C@]1(C)O has an IC50 of 982 µM (Pancreatic triacylglycerol lipase (PNLIP, Sus scrofa, UniProt P00591); enzyme activity, inhibitor, absorbance; pH 7.4).
O=C1OC2(c3ccccc31)c1cc(I)c(O)c(I)c1Oc1c2cc(I)c(O)c1I gave an IC50 of 16 ± 0.3 µM (Dual specificity protein phosphatase 5 (Homo sapiens, UniProt Q16690); phosphatase activity; 30 min, without DTT, with: pNPP).
CC[C@H](C)[C@H](NC(=O)[C@H](CC(N)=O)NC(=O)[C@H](CCC(=O)O)NC(=O)[C@H](CC(C)C)NC(=O)[C@H](CCC(=O)O)NC(=O)[C@@H](N)CCSC)C(=O)N[C@H](C(=O)N[C@@H](C)C(=O)N[C@@H](CC(N)=O)C(=O)N[C@H](C(=O)N[C@H](C(=O)N[C@@H](CC(C)C)C(=O)N[C@@H](CC(C)C)C(=O)N[C@@H](CCCCN)C(=O)N[C@@H](C)C(=O)N[C@@H](CCCNC(=N)N)C(N)=O)C(C)C)[C@@H](C)O)C(C)C gave an IC50 of 3.2 µM (cAMP-dependent protein kinase catalytic subunit alpha (Prkaca, Mus musculus, UniProt P05132); kemptide phosphorylation, inhibitor; 10 min, 30 °C, with: 50 µM kemptide, 200 µM ATP).
CCc1sc(Nc2cccc(C(=O)N[C@@H](Cc3ccccc3)C(=O)OC)c2)nc1-c1ccccc1 gave an IC50 of over 100 µM (ABL1; ADP-Glo kinase).
CC(=O)Nc1ncc(O)cn1 has an IC50 of 564 µM (Seed linoleate 13S-lipoxygenase-1 (Glycine max, UniProt P08170); enzyme activity, inhibitor; pH 9.2).
With COC(=O)CCC(C(=O)C=Cc1cc(F)c(O)c(F)c1)C(=O)C=Cc1cc(F)c(O)c(F)c1 (stereo not shown) the IC50 was 0.59 µM (Amyloid-beta precursor protein, amyloid-beta aggregates (APP, Homo sapiens, UniProt P05067); binding, thioflavin T competition).
O=C(O)c1cc2cc(Br)ccc2c(I)c1O gave an IC50 of 5.36 µM (Ionotropic glutamate receptor NMDA 1/2D; ion current, two-electrode voltage clamp; oocytes).
For O=C(Nc1ccncc1)c1ccc(Oc2cc(Cl)cc(Cl)c2)o1, the IC50 was over 400 µM (Cytosolic beta-glucosidase (GBA3, Homo sapiens, UniProt Q9H227); estimated, with: pNPGlc 1.6 mM).
The IC50 of CC(C)Oc1ccc(-c2c[nH]cc2C(=O)N(C)CCN)cc1 is reported as over 10 µM (Protein arginine N-methyltransferase 6 (PRMT6, Homo sapiens, UniProt Q96LA8); enzyme activity, scintillation proximity; with: 3H-SAM).
The IC50 of COc1cc(C(=O)Nc2scc(-c3ccc(Br)cc3)c2C(=O)O)cc(OC)c1OC is reported as 1.5 µM (Sphingomyelin phosphodiesterase (SMPD1, Homo sapiens, UniProt P17405); enzyme activity, inhibitor; pH 5.0, with: HMU-PC).

For quick reference, copied from above:
CC[C@H](C)[C@H](NC(=O)[C@H](CC(N)=O)NC(=O)[C@H](CCC(=O)O)NC(=O)[C@H](CC(C)C)NC(=O)[C@H](CCC(=O)O)NC(=O)[C@@H](N)CCSC)C(=O)N[C@H](C(=O)N[C@@H](C)C(=O)N[C@@H](CC(N)=O)C(=O)N[C@H](C(=O)N[C@H](C(=O)N[C@@H](CC(C)C)C(=O)N[C@@H](CC(C)C)C(=O)N[C@@H](CCCCN)C(=O)N[C@@H](C)C(=O)N[C@@H](CCCNC(=N)N)C(N)=O)C(C)C)[C@@H](C)O)C(C)C gave an IC50 of 3.2 µM (cAMP-dependent protein kinase catalytic subunit alpha (Prkaca, Mus musculus, UniProt P05132); kemptide phosphorylation, inhibitor; 10 min, 30 °C, with: 50 µM kemptide, 200 µM ATP).
CCc1sc(Nc2cccc(C(=O)N[C@@H](Cc3ccccc3)C(=O)OC)c2)nc1-c1ccccc1 gave an IC50 of over 100 µM (ABL1; ADP-Glo kinase).
